Measurements pooled from the literature.
Lines come from different studies, so protocols differ. ± gives the spread as reported.
Organism: Human betaherpesvirus 5
Effect on: viral replication

O=c1cc(-c2ccc(O)c(O)c2)oc2cc(O)cc(O)c12
IC50 (absorbance; human Fibroblast; 72 h): 6 µM

COc1cccc(-c2nc(C(=O)NCc3ccc(C)cc3)c(O)c3ncccc23)c1
inhibition (inhibitor; HFF; 10 µM): 47%

O=C(NCc1ccccc1F)c1cn(Cc2ccc(F)cc2)cc(O)c1=O
EC50 (inhibitor; 7 days): 1.6 µM

COCCNC(=O)c1nc(Cl)c2cccnc2c1O
inhibition (inhibitor; HFF; 10 µM): 7.1%

Cc1cc(CNC(=O)c2cn(Cc3ccc(F)cc3)cc(O)c2=O)ccc1F
EC50 (inhibitor; 7 days): 1 µM

O=c1cc(-c2ccccc2)oc2cc(O)c(O)c(O)c12
IC50 (absorbance; human Fibroblast; 72 h): 0.4 µM

O=C(NCc1cccc(F)c1)c1cn(Cc2ccc(F)cc2)cc(O)c1=O
EC50 (inhibitor; 7 days): 0.97 µM

Nc1ccn(C[C@@H](CO)OCP(=O)(O)O)c(=O)n1
IC50 (fluorescent focus reduction; HFFF, Toledo GFP reporter; 7 days): 0.2 ± 0.1 µM

O=c1c(-c2ccc(O)cc2)coc2cc(O)cc(O)c12
IC50 (absorbance; human Fibroblast; 72 h): 38 µM

COC(=O)c1nc(Cl)c2cccnc2c1O
inhibition (inhibitor; HFF; 10 µM): 31%

O=c1cc(-c2ccc(O)cc2)oc2cc(O)cc(O)c12
IC50 (absorbance; human Fibroblast; 72 h): 22 µM

O=C(NCc1ccc(F)cc1F)c1cn(C2CC2)cc(O)c1=O
EC50 (inhibitor; 7 days): 4.8 µM

O=c1c(O)c(-c2ccc(O)c(O)c2)oc2cc(O)cc(O)c12
IC50 (absorbance; human Fibroblast; 72 h): 13 µM

O=C(NCc1ccc(F)cc1)c1nc(Cl)c2cccnc2c1O
inhibition (inhibitor; HFF; 10 µM): 32%

O=C(NCc1ccc(F)cc1F)c1c[nH]cc(O)c1=O
EC50 (inhibitor; 7 days): 8 µM

Cc1ccc(CNC(=O)c2nc(-c3ccccc3)c3cccnc3c2O)cc1
inhibition (inhibitor; HFF; 10 µM): 23%

CC[C@H](CO)Nc1nc(NCc2ccccc2O)c2ncn(C(C)C)c2n1
IC50 (fluorescent focus reduction; HFFF, Toledo GFP reporter; 7 days): 3.2 ± 1.6 µM
